# Results gathered from unrelated publications.
# Compare with care: the assays were run in different laboratories. Values joined by “and” are separate records of one study, mostly repeats; a detail may differ.
# Target: Receptor tyrosine-protein kinase erbB-2 (ERBB2, Homo sapiens, UniProt P04626)
Compound,assay,system,conditions,scale,quantity,value
O=C(Nc1ccc(Oc2ncnc3[nH]cc(-c4ccccc4)c23)c(F)c1)c1c2n(n(-c3cc(F)ccc3F)c1=O)CCCC2,"enzyme activity, inhibitor",,0.5 µM,,inhibition,2%
C=CC(=O)Nc1cccc(-c2cnc3[nH]cc(C(=O)NC(C)(C)C)c3n2)c1,"enzyme activity, inhibitor",,0.1 µM,,inhibition,-7%
C=CC(=O)Nc1cc(-c2nn(C3CCN(CCNC(=O)[C@H](C)CCC45CC6CC(CC(C6)C4)C5)CC3)c3ncnc(N)c23)ccc1Oc1ccccc1,"inhibitor, KiNativ profiling",biochemical,2 µM,,inhibition,62.6%
C=C1CCCCCCCCCC(CO)C1=O (centres unmarked),"cell-free assay, competition with immobilised ligand",,10 µM,,remaining binding,100%
CNS(=O)(=O)Nc1nccc(Cc2c(C)c3ccc(Oc4ncccc4F)cc3oc2=O)c1F,"binding, competition with immobilised ligand",,10 µM,,remaining binding,61%
Cc1cnc2nc1Nc1cccc(c1)COC/C=C/COCc1cc(ccc1OCCN1CCOCC1)N2,binding,,0.1 µM,,remaining binding,100%
CC[C@H](C)[C@H](NC(=O)[C@H](CCCCNC(=O)CN(CCNC(=O)CN(CCNC(=O)CN(CCNC(=O)CN(CCNC(=O)[C@H](CCCNC(=N)N)NC(C)=O)C(=O)Cn1ccc(N)nc1=O)C(=O)Cn1cnc2c(=O)[nH]c(N)nc21)C(=O)Cn1cnc2c(=O)[nH]c(N)nc21)C(=O)Cn1ccc(N)nc1=O)NC(=O)[C@H](C)NC(=O)[C@H](CCCNC(=N)N)NC(=O)[C@H](CCCCN)NC(=O)[C@H](CCC(N)=O)NC(=O)[C@H](CCC(N)=O)NC(=O)[C@H](CC(=O)O)NC(=O)[C@@H](NC(=O)[C@H](CC(C)C)NC(=O)[C@H](CC(N)=O)NC(=O)[C@@H]1CCCN1C(=O)[C@H](CC(=O)O)NC(=O)[C@H](CC(C)C)NC(=O)[C@H](C)NC(=O)[C@H](CS)NC(=O)[C@H](CCCC(=O)NCCN(CC(=O)NCCN(CC(=O)NCCN(CC(=O)NCCN(CC(N)=O)C(=O)Cn1cnc2c(=O)[nH]c(N)nc21)C(=O)Cn1ccc(N)nc1=O)C(=O)Cn1ccc(N)nc1=O)C(=O)Cn1cnc2c(=O)[nH]c(N)nc21)NC(=O)[C@H](Cc1c[nH]c2ccccc12)NC(=O)[C@H](Cc1ccc(O)cc1)NC(=O)[C@H](CCCNC(=N)N)NC(=O)[C@H](CC(N)=O)NC(=O)[C@H](CCCNC(=N)N)NC(=O)[C@H](CC1CCC1)NC(=O)[C@H](CCC(=O)O)NC(=O)[C@H](CCCCN)NC(=O)[C@H](CO)NC(C)=O)[C@@H](C)O)C(=O)N[C@@H](CCCNC(=N)N)C(=O)N[C@@H](CO)C(=O)N[C@H](C(=O)N[C@@H](Cc1ccc(O)cc1)C(=O)N[C@@H](CCC(=O)O)C(=O)N[C@@H](CCC(=O)O)C(N)=O)[C@@H](C)CC,"binding, affinity selection mass spectrometry",,"1 h, 4 °C, unit not given",relative to: control-subtracted,enrichment,4.36
COc1cc(OC)c(F)c(/C=C/c2cnc3ccn(S(=O)(=O)c4cn(CCF)cn4)c3n2)c1F,,,10 nM,,inhibition,0%
NC(=O)[C@@H](O)C[C@H]1CCc2sc3ncnc(O[C@H]4CC[C@H](N5CCOCC5)CC4)c3c21,"enzyme activity, inhibitor",,10 µM,,inhibition,-32%
CN1CCN(Cc2ccc(-c3ccc(CO[C@H]4CCC[C@@H]4NC(=O)c4cc(-c5cnn(C)c5)cnc4N)cc3)cc2)CC1,"enzyme activity, inhibitor",,0.1 µM,,inhibition,-7%
Cc1cccc(O[C@H]2CCC[C@@H](C(C)CNCc3ccncc3)C2)c1 (relative stereo),"enzyme activity, inhibitor",,10 µM,,inhibition,-7%
CNC(=O)C[C@H](Cc1ccc(C#N)cc1)NC(=O)c1cc(-c2ccc(CN[C@H](C)c3ccc(C)cc3)o2)ccc1Cl,"enzyme activity, inhibitor",,1 µM,,activity vs control,91%
CC[C@H](C)[C@H](NC(=O)[C@H](CCCCNC(=O)CN(CCNC(=O)CN(CCNC(=O)CN(CCNC(=O)CN(CCNC(=O)[C@H](CCCNC(=N)N)NC(C)=O)C(=O)Cn1ccc(N)nc1=O)C(=O)Cn1cnc2c(=O)[nH]c(N)nc21)C(=O)Cn1cnc2c(=O)[nH]c(N)nc21)C(=O)Cn1ccc(N)nc1=O)NC(=O)[C@H](C)NC(=O)[C@H](CCCNC(=N)N)NC(=O)[C@H](CCCCN)NC(=O)[C@H](CCC(N)=O)NC(=O)[C@H](CCC(N)=O)NC(=O)[C@H](CC(N)=O)NC(=O)[C@@H](NC(=O)[C@H](CCCN)NC(=O)[C@H](CC(N)=O)NC(=O)[C@@H]1CCCN1C(=O)[C@H](CC(=O)O)NC(=O)[C@H](CC(C)C)NC(=O)[C@H](C)NC(=O)[C@H](CS)NC(=O)[C@H](CCCC(=O)NCCN(CC(=O)NCCN(CC(=O)NCCN(CC(=O)NCCN(CC(N)=O)C(=O)Cn1cnc2c(=O)[nH]c(N)nc21)C(=O)Cn1ccc(N)nc1=O)C(=O)Cn1ccc(N)nc1=O)C(=O)Cn1cnc2c(=O)[nH]c(N)nc21)NC(=O)[C@H](Cc1c[nH]c2ccccc12)NC(=O)[C@H](Cc1ccc(O)cc1)NC(=O)[C@H](CCCNC(=N)N)NC(=O)[C@H](CC(N)=O)NC(=O)[C@H](CCCNC(=N)N)NC(=O)[C@H](CC1CCCCC1)NC(=O)[C@H](CCC(=O)O)NC(=O)[C@H](CCCCN)NC(C)=O)[C@@H](C)O)C(=O)N[C@@H](CCCNC(=N)N)C(=O)N[C@@H](CO)C(=O)N[C@H](C(=O)N[C@@H](Cc1ccc(O)cc1)C(=O)N[C@@H](CCC(=O)O)C(=O)N[C@@H](CCC(=O)O)C(=O)NCC(N)=O)[C@@H](C)CC,"binding, affinity selection mass spectrometry",,"1 h, 4 °C, unit not given",relative to: control-subtracted,enrichment,1.39
Cc1nc2c(F)cc(-c3nc(Nc4ccc(CNC(=O)CCCCCCC(=O)NO)cc4)ncc3F)cc2n1C(C)C,"enzyme activity, inhibitor",,1 µM,,inhibition,38%
CCN1CCN(Cc2ccc(C(=O)Nc3ccc(C)c(NCc4cnc5[nH]ccc5c4OC)c3)cc2C(F)(F)F)CC1,"binding, competition with immobilised ligand",,1 µM,,remaining binding,6.2%
CN1CC[C@@H](COc2cnc(C#N)cc2-c2ccn3nc(NC(=O)C4CC4)cc3c2)C1,"enzyme activity, inhibitor",,1 µM,,inhibition,5%
CCCC[C@H](NC(=O)[C@H](CCC(=O)O)NC(=O)[C@H](CCCCN)NC(=O)[C@H](CO)NC(=O)[C@H](Cc1ccccc1)NC(C)=O)C(=O)N[C@@H](CCCNC(=N)N)C(=O)N[C@@H](CC(N)=O)C(=O)N[C@@H](CCCNC(=N)N)C(=O)N[C@@H](Cc1ccncc1)C(=O)N[C@@H](Cc1c[nH]c2ccccc12)C(=O)N[C@@H](CCCC(=O)NCCN(CC(=O)NCCN(CC(=O)NCCN(CC(=O)NCCN(CC(N)=O)C(=O)Cn1cnc2c(=O)[nH]c(N)nc21)C(=O)Cn1ccc(N)nc1=O)C(=O)Cn1ccc(N)nc1=O)C(=O)Cn1cnc2c(=O)[nH]c(N)nc21)C(=O)N[C@@H](CS)C(=O)N[C@@H](C)C(=O)N[C@@H](CC(C)C)C(=O)N[C@@H](CC(=O)O)C(=O)N1CCC[C@H]1C(=O)N[C@@H](CC(N)=O)C(=O)N[C@@H](CC(C)C)C(=O)N[C@H](C(=O)N[C@@H](CC(N)=O)C(=O)N[C@@H](CCC(N)=O)C(=O)N[C@@H](CCC(N)=O)C(=O)N[C@@H](CCCCN)C(=O)N[C@@H](CCCNC(=N)N)C(=O)N[C@@H](C)C(=O)N[C@@H](CCCCNC(=O)CN(CCNC(=O)CN(CCNC(=O)CN(CCNC(=O)CN(CCNC(=O)[C@H](CCCNC(=N)N)NC(C)=O)C(=O)Cn1ccc(N)nc1=O)C(=O)Cn1cnc2c(=O)[nH]c(N)nc21)C(=O)Cn1cnc2c(=O)[nH]c(N)nc21)C(=O)Cn1ccc(N)nc1=O)C(=O)N[C@H](C(=O)N[C@@H](CCCNC(=N)N)C(=O)N[C@@H](CO)C(=O)N[C@H](C(=O)N[C@@H](Cc1ccc(O)cc1)C(=O)N[C@@H](CCC(=O)O)C(=O)N[C@@H](CCC(=O)O)C(=O)NCC(=O)N[C@@H](CCC(=O)O)C(N)=O)[C@@H](C)CC)[C@@H](C)CC)[C@@H](C)O,"binding, affinity selection mass spectrometry",,"1 h, 4 °C, unit not given",relative to: control-subtracted,enrichment,1.53
COCC12C(=O)NC3C4(C(OC)CC1O)C1CC5(O)C(OC)C(O)C(OC(C)=O)(C1C5OC(=O)c1ccccc1)C3(O)C(OC)C24 (centres unmarked),"kinase activity, inhibitor, ProQinase kinase profiling",,25 µM,relative to: control,remaining activity,107% and 88%
COc1c(Cl)cccc1Nc1c(-c2ccncc2C#C[C@@]2(C)CCCN2C(=O)/C=C/CN(C)C)[nH]c2c1C(=O)NCC2,"binding, competition with immobilised ligand",,3 µM,,remaining binding,2.4%
CC[C@H](C)[C@H](NC(=O)[C@H](CCCCNC(=O)CN(CCNC(=O)CN(CCNC(=O)CN(CCNC(=O)CN(CCNC(=O)[C@H](CCCNC(=N)N)NC(C)=O)C(=O)Cn1ccc(N)nc1=O)C(=O)Cn1cnc2c(=O)[nH]c(N)nc21)C(=O)Cn1cnc2c(=O)[nH]c(N)nc21)C(=O)Cn1ccc(N)nc1=O)NC(=O)[C@H](C)NC(=O)[C@H](CCCNC(=N)N)NC(=O)[C@H](CCCCN)NC(=O)[C@H](CCC(N)=O)NC(=O)[C@H](CCC(N)=O)NC(=O)[C@H](CC(N)=O)NC(=O)[C@@H](NC(=O)[C@H](CC(C)C)NC(=O)[C@H](CC(N)=O)NC(=O)[C@@H]1CCCN1C(=O)[C@H](CC(=O)O)NC(=O)[C@H](CC(C)C)NC(=O)[C@H](C)NC(=O)[C@H](CS)NC(=O)[C@H](CCCC(=O)NCCN(CC(=O)NCCN(CC(=O)NCCN(CC(=O)NCCN(CC(N)=O)C(=O)Cn1cnc2c(=O)[nH]c(N)nc21)C(=O)Cn1ccc(N)nc1=O)C(=O)Cn1ccc(N)nc1=O)C(=O)Cn1cnc2c(=O)[nH]c(N)nc21)NC(=O)[C@H](Cc1c[nH]c2ccccc12)NC(=O)[C@H](Cc1ccc(O)cc1)NC(=O)[C@H](CCCNC(=N)N)NC(=O)[C@H](CC(N)=O)NC(=O)[C@H](CCCNC(=N)N)NC(=O)[C@H](CC1CCCCC1)NC(=O)[C@H](CCC(=O)O)NC(=O)[C@H](CCCCN)NC(=O)[C@H](CO)NC(=O)[C@H](Cc1ccccc1)NC(C)=O)[C@@H](C)O)C(=O)N[C@@H](CCCNC(=N)N)C(=O)N[C@@H](CO)C(=O)N[C@H](C(=O)N[C@@H](Cc1ccc(O)cc1)C(=O)N[C@@H](CCC(=O)O)C(=O)N[C@@H](CCC(=O)O)C(N)=O)[C@@H](C)CC,"binding, SPR",,25 °C,,dissociation rate constant,0.0012 s⁻¹
COc1cc(Nc2nc(C)cc(-c3cnn4nc(OC)ccc34)n2)cc(C(F)(F)F)c1,inhibitor,,1 µM,relative to: control,remaining activity,100%
O=C(Cc1ccc(OCc2ccccc2)cc1)NC1(C(=O)O)CCN(C(=O)c2ccc(-c3cccc(Cl)c3)cc2)CC1,"enzyme activity, inhibitor",,10 µM,,activity vs control,102%
CN1CCN(Cc2ccc(NC(=O)c3cccc(C#Cc4cnc(N)c5ncccc45)c3)cc2C(F)(F)F)CC1,"cell-free assay, competition with immobilised ligand",,50 nM,,remaining binding,15%
